Measurements from different studies.
Each numbered part is a random draw from the data of one study; scales do not carry over between parts.

Sample 1 — method: protein-binding microarray; form: double-stranded DNA, one strand shown; medium: in vitro; concentration: not given; direction: higher = stronger binding
Target: Max-binding protein MNT, bHLH-zipper, MAX partner unstated (MNT, Homo sapiens, UniProt Q99583, residues 220-300)
Setting: k-mer, scored over probes, only values ≥0.25
Residues (chain): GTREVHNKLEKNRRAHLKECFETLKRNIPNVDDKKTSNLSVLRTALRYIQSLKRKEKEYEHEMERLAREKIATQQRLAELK
The E-score of `ACGTGCGC` is reported as 0.468.
`ATAACGTG` has an E-score of 0.391.
The E-score of `AGGGCGTG` is reported as 0.334.
`ATCCCACG` has an E-score of 0.361.
`ACGAGCAC` gave an E-score of 0.269.

Sample 2 — method: competition protein-binding microarray; form: double-stranded DNA, one strand shown; medium: in vitro; concentration: 2 µM; added: Cbf1 competitor, 0.05 µM; direction: higher = stronger binding
Target: Phosphate system positive regulatory protein PHO4, full length, GST-tagged (PHO4, Saccharomyces cerevisiae, UniProt P07270, residues 1-312)
Setting: whole 60-bp probe, lowest competitor level
Residues (chain): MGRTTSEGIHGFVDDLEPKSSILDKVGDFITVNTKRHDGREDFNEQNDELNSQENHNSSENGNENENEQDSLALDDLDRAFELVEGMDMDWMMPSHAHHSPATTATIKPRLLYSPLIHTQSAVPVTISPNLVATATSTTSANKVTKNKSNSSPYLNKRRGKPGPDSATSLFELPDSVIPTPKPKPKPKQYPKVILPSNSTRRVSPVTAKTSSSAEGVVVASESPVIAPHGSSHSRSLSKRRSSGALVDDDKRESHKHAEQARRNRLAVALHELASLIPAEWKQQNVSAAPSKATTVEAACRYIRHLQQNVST
With `CTTCTGTAAATTTGACGGGTGGGTGGACGCGCCCCGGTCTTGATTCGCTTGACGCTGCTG` the fluorescence intensity was 4550 a.u.
For `CTTCTGTAAATTTGATGAGTGGGTGGACGCGCCCCGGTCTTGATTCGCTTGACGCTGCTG`, the fluorescence intensity was 4620 a.u.
With `ATATACTCTTTGGTGCACATGCAGGGATGGTTCCGGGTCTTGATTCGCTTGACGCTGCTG` the fluorescence intensity was 9950 a.u.
The fluorescence intensity of `CCAAGCCGCCAGCCCCGCGTGCGGCCTGCCGCGAGGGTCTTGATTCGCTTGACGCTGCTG` is reported as 8960 a.u.
The fluorescence intensity of `CATACCCAACCTTGTGTCGTGGGTGAAGATATTTGTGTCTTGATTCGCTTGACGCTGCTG` is reported as 7400 a.u.
The fluorescence intensity of `CATACCCAACCTTGAACCGTGGGTGAAGATATTTGTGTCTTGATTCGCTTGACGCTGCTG` is reported as 7110 a.u.

Sample 3 — method: RNA Bind-n-Seq; form: RNA; medium: in vitro; concentration: 200 nM; setting: whole 134-nt RNA, ends assumed; added: 150 mM KCl; relative to: input library; direction: higher = stronger binding
Target: Fragile X messenger ribonucleoprotein 1, C-terminal low-complexity region (Fmr1, Mus musculus, UniProt P35922)
`GGGAGUUCUACAGUCCGACGAUCAGUCCUGUGCUACACAUCGUAUGUACCGAAUCGGGAAAAAAAGGGAAAAAGGGUGGGAAAGUAUUAUGUUACGCCGUUCGGAUCUGCACUUGGAAUUCUCGGGUGUCAAGG` has a log2 enrichment of 0.352.
For `GGGAGUUCUACAGUCCGACGAUCAGUCCUGUGCUACACAUCGUAUGUACCGAAUCGGUUUUUGGGGUUUUUGGUUUUUGGAAAGUAUUAUGUUACGCCGUUCGGAUCUGCACUUGGAAUUCUCGGGUGUCAAGG`, the log2 enrichment was -0.37.
The log2 enrichment of `GGGAGUUCUACAGUCCGACGAUCUGCACUGACUGGUGGUGUCAACCCAUGGCUCAACUGGAAGCACUGUGGAAGAAGAUGGAGGGUGUGGUAAGUCCAUCAGACCUGGGACCGUGGAAUUCUCGGGUGUCAAGG` is reported as -0.894.

Other studies, line by line
The fold induction of `PhoQ, residues 284 288 289 292 302 303 NLAAMI` is reported as 5.45 (PhoP, residues 12 14 15 18 19 SQCLL (Escherichia coli, UniProt P23836); Sort-seq, measured: YFP reporter; E. coli; PhoQ-PhoP variant library, added: 10 µM Mg2+; relative to: high Mg2+ state, higher = stronger signaling).

Excerpt of the above (sample 2):
With `CTTCTGTAAATTTGACGGGTGGGTGGACGCGCCCCGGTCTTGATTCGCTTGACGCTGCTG` the fluorescence intensity was 4550 a.u.
